Experimental data of several laboratories.
Each numbered part is a random draw from the data of one study; scales do not carry over between parts. Substitutions count along the parent as printed.

Sample 1
Target: Centromere-binding protein 1, full length, N-terminal tag (CBF1, Saccharomyces cerevisiae, UniProt P17106, residues 1-351)
UniProt P17106, sequence (whole entry, looked up): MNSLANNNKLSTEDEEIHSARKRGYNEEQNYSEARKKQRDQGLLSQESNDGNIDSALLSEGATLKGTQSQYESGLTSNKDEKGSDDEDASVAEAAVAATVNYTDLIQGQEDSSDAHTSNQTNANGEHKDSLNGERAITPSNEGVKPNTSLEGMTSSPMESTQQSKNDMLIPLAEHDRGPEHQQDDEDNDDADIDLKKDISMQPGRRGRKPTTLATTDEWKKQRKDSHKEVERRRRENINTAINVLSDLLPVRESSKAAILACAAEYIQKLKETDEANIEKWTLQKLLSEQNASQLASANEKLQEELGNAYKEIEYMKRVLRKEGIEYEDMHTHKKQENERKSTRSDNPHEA
Method: protein-binding microarray
Form: double-stranded DNA, one strand shown
Matrix: in vitro
Tested at: 0.8 µM
Setting: whole 60-bp probe, no competitor
Direction: higher = stronger binding
All sequences stand within: … GTCTTGATTCGCTTGACGCTGCTG
Oligonucleotide	fluorescence intensity [a.u.]
CTAGCTCCATCGGGACAGGAGATTTTATTAATGTTC	491
GAACCGGGTTTTCATCAGGAGATGAGAGTTCTTTAG	511
CTATAGAAGGAAAAGCACATGGTACCCAGGCAGTTC	656
CTAGTTCCCGAATGTTGTAACATCAAAGCCAAGTTC	531
CTAAGACGTATAAAAAACGTGAAGGGTGAAGAATTC	641
CTATTATATTCGTGGAAGGTGACGATAGTAATATTC	591
GAAGATTAACACGAGAACGTGAGTACTCAATCATAG	748
TGTACGAAGCTATATCAGGTGAGTATAGTAGTTAGG	794

Sample 2
Target: BATF, bZIP domain (human)
Method: DHFR protein complementation
Matrix: yeast
Setting: single substitutions, most at no-binding floor
Reference: wild-type JUN-FOS pair
Direction: higher = stronger binding
Starting sequence: JUN, bZIP domain (human); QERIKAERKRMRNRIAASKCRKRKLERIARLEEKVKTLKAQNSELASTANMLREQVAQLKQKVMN; partner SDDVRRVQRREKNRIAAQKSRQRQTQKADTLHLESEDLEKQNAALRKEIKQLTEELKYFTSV
Substitution	binding fitness
A57G	-0.0347 natural log
L52N	-1.04 natural log
R53N	-0.548 natural log
R30I	0.017 natural log
E54H	-0.0514 natural log
L31N	-0.164 natural log
K34A	-0.0668 natural log
R30W	0.00516 natural log

Sample 3
Target: CCNB1, cyclin fold, Cln2 fusion (human)
Method: yeast growth competition, sequencing
Matrix: yeast
Setting: strong parent motif
Reference: not given
Direction: higher = stronger binding
Starting sequence: viral docking peptide; YKVKRRLVFGADD
Substitution	normalised enrichment score
K4Q	4.19
K4T	3.47
K2H	4.19
K4N	4.27
V8K	2.62
G10Q	3.54
L7F	0.534
L7P	0.252
R6W	-0.113
A11H	3.83
D13A	1.67
A11R	2.94
R6H	0.582
R5Q	2.76
D12L	1.74
D12W	1.65

Sample 4
Target: RING finger protein unkempt homolog, zinc fingers 1-6, GST-SBP tag (UNK, Homo sapiens, UniProt Q9C0B0, residues 30-357)
UniProt Q9C0B0, sequence (30-357, looked up): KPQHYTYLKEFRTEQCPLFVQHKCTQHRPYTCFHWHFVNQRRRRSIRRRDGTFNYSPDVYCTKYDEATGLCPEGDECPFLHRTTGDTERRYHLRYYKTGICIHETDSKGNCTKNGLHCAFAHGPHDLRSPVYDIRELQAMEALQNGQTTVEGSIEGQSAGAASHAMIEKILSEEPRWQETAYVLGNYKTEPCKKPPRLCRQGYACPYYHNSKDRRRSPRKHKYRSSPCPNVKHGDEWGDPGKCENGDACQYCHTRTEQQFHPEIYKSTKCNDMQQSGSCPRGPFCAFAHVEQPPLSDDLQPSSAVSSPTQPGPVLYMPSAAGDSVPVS
Method: RNA Bind-n-Seq
Form: RNA
Matrix: in vitro
Tested at: not given
Setting: RNA with constant flanks, human and mouse sites, ends assumed
Reference: input RNA pool
Direction: higher = stronger binding
All sequences stand within: GGGAGUUCUACAGUCCGACGAUC … CAACAGAGGAUUGAGCAUCA
Oligonucleotide	bound/input enrichment
GUGCUGACUUGGGAUUUUUAACCUUAUAUAUCUUUUUCCUUUAUUCAAAACAAAACAAUUUUUAGCACACUGAAAAAAAAAAAAGCCAAAUGUUUUGUGCCUUUCUAAGGCAGCGCUGUA	6.02 ratio
AGAACUCCACCCCCAGAGGAAGUGGAUCUGCUUCUCCAGUUUUUGAGGAGCCAGCCAGGGGUCCAGCACAGCCCUACCCCGCCCCAGUAUCAUGCGAUGGUCCCCCACACCGGUUCCCUG	0.198 ratio
AAUAAAAUGUACAAAUUUGUUGUGUUUUUUUAUGUUCUAAUAAUACUGAGACUUCUAGGUCUUAGGUUAAUUUUUAGGAAGAUCUUGCAUGCCAUCAGGAGUAAAUUUUAUUGUGGUUCU	4.56 ratio
GCCAUUACAACUCUCCACAACCUUUUAUUACAUCAAGAAGGAGCUAAAAUGGCAGUGCGUUUAGCUGGUGGGCUGCAGAAAAUGGUUGCCUUGCUCAACAAAACAAAUGUUAAAUUCUUG	0.258 ratio
UGUUUUGUUAUUGCCUGGAUAUAUGGAGGUGAUAACCUUUAUGAUGGUAUUGAGGACAUGAUUGGCUAUCGGCCCGGGCCCUGGAUGAAGUACAGCUGGGCUGUGAUCACUCCAGUUCUC	0.109 ratio
ACAUUUCAGGUUUUUCAAGAAGAAUUUGGAGUAAUUAAAUCCUAUAACUUAAAACCAGGGGGUGAUAAGAUUCCAGUUACCAAUCAGAAUAGAAGAGAGUAUGUACAGCUUUAUACUGAC	0.344 ratio
UUUUUUGUGAACAAGAUUUUGCCACAGUAUCGUGAUGCAGUCAUGUCUCACACGCUCAUCUAUAUCCCCUCCUACUUUGACUUCGUGCGUCUUCGAAAUUACUUCAAGAAGGAGGAAUUG	0.22 ratio
UACAUUUUUUUCAGCCUUUAUCUAGAUGAGGUAAAGGGAAUCAUUCUUAUGGUGCUCUUGGAGAGUUUCAGGCCUGUGCAUGUGUGUACAGCAGGAGGUAAUAUGCUAUAAUGUCUGCUG	0.273 ratio

Some of these lines once more (sample 2):
Substitution	binding fitness
A57G	-0.0347 natural log
L52N	-1.04 natural log
R53N	-0.548 natural log
R30I	0.017 natural log
E54H	-0.0514 natural log
L31N	-0.164 natural log
